Assay results pooled from the literature.
A part holds a random share of what one study measured. Substitutions count along the parent as printed. pEC50: −log10 of the molar value.
Sequence of UniProt P41143 (whole entry, looked up): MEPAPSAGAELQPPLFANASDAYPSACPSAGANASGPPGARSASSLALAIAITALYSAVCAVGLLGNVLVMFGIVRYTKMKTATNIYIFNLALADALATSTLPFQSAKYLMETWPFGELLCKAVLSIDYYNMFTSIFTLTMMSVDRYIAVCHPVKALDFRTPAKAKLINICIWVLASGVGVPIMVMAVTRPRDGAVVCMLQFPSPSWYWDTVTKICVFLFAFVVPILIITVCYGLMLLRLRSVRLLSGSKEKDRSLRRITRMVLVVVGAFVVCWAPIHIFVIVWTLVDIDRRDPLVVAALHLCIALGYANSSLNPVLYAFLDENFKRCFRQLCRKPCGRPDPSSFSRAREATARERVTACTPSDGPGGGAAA

Block 1
Target: CCNB3, cyclin fold, Cln2 fusion (human)
Method: yeast growth competition, sequencing
Matrix: yeast
Setting: weak parent motif
Baseline: not given
Direction: higher = stronger binding
Starting sequence: viral docking peptide; PGASRRLFGSSAD; partner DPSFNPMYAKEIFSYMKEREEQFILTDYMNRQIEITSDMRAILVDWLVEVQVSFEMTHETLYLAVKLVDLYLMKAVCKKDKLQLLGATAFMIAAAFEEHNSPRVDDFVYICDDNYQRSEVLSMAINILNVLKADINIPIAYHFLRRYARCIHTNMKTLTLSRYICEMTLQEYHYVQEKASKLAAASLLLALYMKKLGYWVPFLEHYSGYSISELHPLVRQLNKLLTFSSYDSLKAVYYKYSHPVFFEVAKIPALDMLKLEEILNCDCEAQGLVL
Substitution | normalised enrichment score
PGASRRLAGSSAD [F8A] | -0.0438
PGASKRLFGSSAD [R5K] | -0.0378
PGASRRLFASSAD [G9A] | 0.798
AGASRRLFGSSAD [P1A] | 0.475
PGASKRLLGSSAD [R5K F8L] | 0.107
PAASRRLFGSSAD [G2A] | 0.207
PGASARLFGSSAD [R5A] | 0.556

Block 2
Target: UDP-N-acetylglucosamine--peptide N-acetylglucosaminyltransferase 110 kDa subunit (OGT, Homo sapiens, UniProt O15294)
Effect on: binding
Method: phage display NGS
Molecule type: peptide
Concentration: concentration not given
Baseline: input library
Target sequence (O15294 1-1046): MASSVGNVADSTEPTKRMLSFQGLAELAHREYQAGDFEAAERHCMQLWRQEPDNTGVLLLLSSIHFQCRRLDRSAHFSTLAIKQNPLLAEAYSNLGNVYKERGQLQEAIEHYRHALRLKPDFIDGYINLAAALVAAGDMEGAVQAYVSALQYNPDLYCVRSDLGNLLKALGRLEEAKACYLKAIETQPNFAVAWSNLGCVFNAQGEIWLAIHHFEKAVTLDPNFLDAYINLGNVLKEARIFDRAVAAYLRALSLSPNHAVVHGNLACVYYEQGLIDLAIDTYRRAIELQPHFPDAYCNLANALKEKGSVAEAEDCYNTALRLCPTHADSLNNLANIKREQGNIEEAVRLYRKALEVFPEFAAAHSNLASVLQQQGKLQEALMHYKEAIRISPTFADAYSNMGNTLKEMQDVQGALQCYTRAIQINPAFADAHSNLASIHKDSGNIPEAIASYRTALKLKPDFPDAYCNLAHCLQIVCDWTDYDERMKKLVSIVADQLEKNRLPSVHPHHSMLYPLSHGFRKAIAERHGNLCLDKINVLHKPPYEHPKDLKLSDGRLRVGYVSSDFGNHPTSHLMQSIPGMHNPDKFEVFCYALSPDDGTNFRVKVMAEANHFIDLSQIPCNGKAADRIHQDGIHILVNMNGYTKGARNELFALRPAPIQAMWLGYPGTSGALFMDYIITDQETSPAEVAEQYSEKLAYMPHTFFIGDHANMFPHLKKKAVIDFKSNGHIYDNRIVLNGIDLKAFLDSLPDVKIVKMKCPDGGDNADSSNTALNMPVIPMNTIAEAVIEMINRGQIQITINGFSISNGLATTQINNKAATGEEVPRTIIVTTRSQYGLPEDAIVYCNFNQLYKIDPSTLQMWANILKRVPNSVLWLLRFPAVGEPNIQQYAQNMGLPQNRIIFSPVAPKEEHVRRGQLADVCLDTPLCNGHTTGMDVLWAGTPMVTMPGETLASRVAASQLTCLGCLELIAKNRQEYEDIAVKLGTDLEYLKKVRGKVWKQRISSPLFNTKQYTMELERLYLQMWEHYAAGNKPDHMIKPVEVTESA
Molecule | enrichment fold change
HKSHTPHNMDWNTVR | 3.14
YRTAHSHDHASHHNH | 11.6
APDIFFHPKYYIKI | 13.9
DMYEYRYKPHYVIQI | 6.57
HYHNDFTFHFNHTFH | 2.92
WSAVMPQYRIEYNYA | 59.3
GQLMMTHHPQWRQV | 2.1
IRHPYDHFHDKPGGS | 9.39

Single results of other studies
SMILES | target | assay | test system | conditions | endpoint | value
C[C@@H]1CN(c2cc(-c3n[nH]c4ccc(OC5(C)CC5)cc34)ncn2)C[C@H](C)O1 | Sodium-dependent serotonin transporter (SLC6A4, Homo sapiens, UniProt P31645) | ligand displacement |  | 10 µM | inhibition | -2.29%
CCN(CC)C(=O)c1ccc(C2=CC3(CCNCC3)Oc3cccc(O)c32)cc1 | Delta-type opioid receptor, with β-arrestin2 (OPRD1, Homo sapiens, UniProt P41143) |  | human cells |  | pEC50 | 6.19

Some of these lines once more (block 2):
Molecule | enrichment fold change
IRHPYDHFHDKPGGS | 9.39
